Results gathered from unrelated publications.
Compare with care: the assays were run in different laboratories. Numbers after ± are the reported error.
WRKY40 full length assumed: WRKY40 full length assumed (Arabidopsis thaliana, UniProt Q9SAH7)
Chain of UniProt Q9SAH7 (whole entry, looked up): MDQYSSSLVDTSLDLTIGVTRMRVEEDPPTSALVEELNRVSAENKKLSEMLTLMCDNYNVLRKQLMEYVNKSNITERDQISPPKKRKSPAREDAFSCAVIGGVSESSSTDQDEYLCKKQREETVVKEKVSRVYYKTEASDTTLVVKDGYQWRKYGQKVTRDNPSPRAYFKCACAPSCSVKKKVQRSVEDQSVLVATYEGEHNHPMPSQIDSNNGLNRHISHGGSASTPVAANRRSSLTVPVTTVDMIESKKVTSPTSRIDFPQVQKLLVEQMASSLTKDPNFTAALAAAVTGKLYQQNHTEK
U2AF2: U2AF2 148-342 (Homo sapiens, UniProt P26368)
Chain of UniProt P26368 (whole entry, looked up): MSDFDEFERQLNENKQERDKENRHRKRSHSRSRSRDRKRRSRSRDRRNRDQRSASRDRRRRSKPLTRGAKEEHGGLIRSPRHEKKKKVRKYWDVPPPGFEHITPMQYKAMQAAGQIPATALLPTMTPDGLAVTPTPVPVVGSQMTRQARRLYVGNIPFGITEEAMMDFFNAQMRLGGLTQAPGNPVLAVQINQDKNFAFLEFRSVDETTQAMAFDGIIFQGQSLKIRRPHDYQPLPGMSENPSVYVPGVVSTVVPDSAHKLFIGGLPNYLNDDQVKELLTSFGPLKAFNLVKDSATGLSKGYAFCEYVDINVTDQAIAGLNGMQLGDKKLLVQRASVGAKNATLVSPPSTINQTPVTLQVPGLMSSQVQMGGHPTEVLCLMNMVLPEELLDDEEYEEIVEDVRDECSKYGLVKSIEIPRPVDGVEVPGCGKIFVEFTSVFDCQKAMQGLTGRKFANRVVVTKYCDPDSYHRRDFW
WT1: WT1 323-438 (Homo sapiens, UniProt P19544)
Chain of UniProt P19544 (whole entry, looked up): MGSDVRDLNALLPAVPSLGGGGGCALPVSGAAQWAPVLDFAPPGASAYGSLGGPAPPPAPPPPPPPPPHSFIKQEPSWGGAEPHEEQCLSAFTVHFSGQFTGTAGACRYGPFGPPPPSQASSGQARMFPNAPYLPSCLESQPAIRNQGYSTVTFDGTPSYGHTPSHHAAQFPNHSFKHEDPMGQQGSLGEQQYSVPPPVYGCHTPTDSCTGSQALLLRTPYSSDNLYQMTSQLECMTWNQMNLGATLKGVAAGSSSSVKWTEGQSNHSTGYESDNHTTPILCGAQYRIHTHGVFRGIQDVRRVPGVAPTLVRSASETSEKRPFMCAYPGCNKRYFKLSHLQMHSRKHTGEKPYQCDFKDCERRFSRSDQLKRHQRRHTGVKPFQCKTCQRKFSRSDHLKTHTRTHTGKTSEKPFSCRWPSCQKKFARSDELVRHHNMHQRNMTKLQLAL
WRKY23: WRKY23 (Oryza sativa, UniProt Q7E0X1)
T1: TOA1/TOA2 1-286; 1-122 (Saccharomyces cerevisiae); chain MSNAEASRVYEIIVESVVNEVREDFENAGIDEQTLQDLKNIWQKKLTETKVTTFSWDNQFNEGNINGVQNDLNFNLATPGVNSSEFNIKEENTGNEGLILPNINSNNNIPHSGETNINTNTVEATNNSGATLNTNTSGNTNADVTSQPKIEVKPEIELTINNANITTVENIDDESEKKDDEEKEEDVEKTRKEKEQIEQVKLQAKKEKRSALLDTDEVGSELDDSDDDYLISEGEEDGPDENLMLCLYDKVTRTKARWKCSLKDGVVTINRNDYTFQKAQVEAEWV; chain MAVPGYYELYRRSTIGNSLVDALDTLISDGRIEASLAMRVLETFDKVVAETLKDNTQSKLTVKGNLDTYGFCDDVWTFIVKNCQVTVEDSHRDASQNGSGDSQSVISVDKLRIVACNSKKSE
Chain of UniProt Q5NB82 (whole entry, looked up): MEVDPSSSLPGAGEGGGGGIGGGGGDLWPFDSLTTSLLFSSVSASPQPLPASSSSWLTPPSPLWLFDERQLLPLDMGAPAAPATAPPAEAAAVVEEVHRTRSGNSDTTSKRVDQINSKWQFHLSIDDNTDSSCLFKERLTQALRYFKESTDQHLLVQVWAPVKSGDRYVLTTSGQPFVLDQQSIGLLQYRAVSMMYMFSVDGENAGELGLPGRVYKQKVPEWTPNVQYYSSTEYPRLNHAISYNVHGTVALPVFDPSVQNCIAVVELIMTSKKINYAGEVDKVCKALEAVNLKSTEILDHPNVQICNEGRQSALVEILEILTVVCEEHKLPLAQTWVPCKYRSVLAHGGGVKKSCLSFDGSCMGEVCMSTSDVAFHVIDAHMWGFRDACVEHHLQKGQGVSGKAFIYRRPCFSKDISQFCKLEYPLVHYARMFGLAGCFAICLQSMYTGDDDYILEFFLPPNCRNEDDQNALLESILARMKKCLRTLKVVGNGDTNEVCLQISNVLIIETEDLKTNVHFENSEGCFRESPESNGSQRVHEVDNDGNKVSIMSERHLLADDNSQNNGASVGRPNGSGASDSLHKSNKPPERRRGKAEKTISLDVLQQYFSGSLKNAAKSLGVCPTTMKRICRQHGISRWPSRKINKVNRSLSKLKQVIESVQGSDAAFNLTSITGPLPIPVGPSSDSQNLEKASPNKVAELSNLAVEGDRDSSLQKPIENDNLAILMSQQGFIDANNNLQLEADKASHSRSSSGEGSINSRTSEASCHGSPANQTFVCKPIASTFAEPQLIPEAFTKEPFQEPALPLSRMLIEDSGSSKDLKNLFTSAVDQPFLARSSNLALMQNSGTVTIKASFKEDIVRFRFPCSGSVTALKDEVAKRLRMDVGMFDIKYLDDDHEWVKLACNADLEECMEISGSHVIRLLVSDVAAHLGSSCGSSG
Chain of UniProt Q7EZT1 (whole entry, looked up): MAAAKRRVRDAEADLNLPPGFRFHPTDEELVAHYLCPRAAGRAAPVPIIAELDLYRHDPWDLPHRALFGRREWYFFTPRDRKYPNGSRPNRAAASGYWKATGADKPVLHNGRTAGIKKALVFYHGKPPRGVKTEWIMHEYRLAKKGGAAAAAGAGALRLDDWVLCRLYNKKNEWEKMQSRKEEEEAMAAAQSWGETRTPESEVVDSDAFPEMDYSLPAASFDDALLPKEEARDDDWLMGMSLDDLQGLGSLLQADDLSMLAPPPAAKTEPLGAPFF
Chain of UniProt Q15020 (whole entry, looked up): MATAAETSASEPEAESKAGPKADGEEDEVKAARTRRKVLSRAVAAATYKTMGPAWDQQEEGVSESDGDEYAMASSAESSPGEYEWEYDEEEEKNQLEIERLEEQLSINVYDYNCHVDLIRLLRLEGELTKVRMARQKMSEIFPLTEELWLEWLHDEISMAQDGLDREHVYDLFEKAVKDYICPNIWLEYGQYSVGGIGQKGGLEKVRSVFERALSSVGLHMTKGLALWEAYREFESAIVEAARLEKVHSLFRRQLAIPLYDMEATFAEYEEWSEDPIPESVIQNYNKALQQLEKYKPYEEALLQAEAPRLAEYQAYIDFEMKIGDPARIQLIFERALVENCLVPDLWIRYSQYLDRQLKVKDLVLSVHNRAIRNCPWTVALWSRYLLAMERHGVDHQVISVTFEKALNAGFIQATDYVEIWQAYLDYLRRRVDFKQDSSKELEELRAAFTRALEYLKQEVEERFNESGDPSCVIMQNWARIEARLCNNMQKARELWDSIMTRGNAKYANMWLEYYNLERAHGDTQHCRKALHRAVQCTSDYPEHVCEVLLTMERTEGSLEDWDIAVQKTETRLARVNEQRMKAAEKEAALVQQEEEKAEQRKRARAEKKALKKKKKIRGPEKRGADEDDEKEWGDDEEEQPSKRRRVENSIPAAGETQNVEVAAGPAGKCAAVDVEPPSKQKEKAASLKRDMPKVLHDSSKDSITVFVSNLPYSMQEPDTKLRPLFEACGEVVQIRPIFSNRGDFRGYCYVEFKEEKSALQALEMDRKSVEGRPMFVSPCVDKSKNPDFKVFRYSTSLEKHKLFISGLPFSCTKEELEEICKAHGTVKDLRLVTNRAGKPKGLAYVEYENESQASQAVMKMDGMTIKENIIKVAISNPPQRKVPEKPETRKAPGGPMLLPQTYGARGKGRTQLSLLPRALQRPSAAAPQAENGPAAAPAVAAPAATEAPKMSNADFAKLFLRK
Chain of UniProt Q9FNN6 (whole entry, looked up): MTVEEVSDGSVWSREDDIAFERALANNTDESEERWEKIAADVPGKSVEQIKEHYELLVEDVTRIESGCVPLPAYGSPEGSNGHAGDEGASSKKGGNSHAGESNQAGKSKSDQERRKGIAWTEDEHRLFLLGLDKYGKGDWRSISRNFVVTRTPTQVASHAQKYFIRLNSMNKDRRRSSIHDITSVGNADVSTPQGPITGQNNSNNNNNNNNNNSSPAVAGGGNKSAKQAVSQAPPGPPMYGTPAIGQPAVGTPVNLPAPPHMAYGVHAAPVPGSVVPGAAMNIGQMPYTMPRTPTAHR
Chain of UniProt Q9NZI8 (whole entry, looked up): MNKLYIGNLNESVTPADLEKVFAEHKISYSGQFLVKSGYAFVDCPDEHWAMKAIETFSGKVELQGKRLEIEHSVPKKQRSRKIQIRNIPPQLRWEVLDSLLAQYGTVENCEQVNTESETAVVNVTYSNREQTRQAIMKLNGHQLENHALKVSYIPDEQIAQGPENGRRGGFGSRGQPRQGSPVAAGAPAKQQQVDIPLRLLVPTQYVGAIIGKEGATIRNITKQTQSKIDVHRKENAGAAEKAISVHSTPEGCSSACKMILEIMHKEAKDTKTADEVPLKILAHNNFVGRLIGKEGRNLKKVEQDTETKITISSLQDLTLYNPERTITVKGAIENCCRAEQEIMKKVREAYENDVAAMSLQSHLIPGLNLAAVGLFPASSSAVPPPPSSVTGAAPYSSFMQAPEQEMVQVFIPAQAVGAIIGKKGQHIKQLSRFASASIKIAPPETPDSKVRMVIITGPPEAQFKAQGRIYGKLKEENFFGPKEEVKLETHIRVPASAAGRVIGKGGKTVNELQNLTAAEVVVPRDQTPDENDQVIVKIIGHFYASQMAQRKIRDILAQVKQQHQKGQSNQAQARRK
Chain of UniProt P07676 (whole entry, unmodified, looked up): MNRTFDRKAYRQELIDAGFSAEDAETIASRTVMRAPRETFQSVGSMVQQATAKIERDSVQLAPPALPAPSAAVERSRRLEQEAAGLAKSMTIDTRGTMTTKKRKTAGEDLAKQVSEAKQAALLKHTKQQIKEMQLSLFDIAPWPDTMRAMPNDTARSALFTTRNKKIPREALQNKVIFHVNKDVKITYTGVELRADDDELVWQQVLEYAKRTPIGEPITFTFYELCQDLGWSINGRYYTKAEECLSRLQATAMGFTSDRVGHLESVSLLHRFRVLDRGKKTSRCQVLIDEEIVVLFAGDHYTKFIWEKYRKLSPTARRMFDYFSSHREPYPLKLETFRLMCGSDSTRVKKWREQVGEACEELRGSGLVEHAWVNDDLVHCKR

Strand | target | assay | test system | setting | measurement | value
GGAATTGGTCAGTGCTAATCCTTGGTCAGTGCAGCTA (dsDNA (Caenorhabditis elegans); blunt) | him-8 140-235 (Caenorhabditis elegans, UniProt O18068) | streptavidin pull-down, western blot | double-stranded DNA, one strand shown | 1 µM | binding | no binding
TTTTTTTTTTTTTTTTTTTT (ssDNA) | priA full length assumed (Escherichia coli, UniProt P17888) | UV photo-cross-linking | single-stranded DNA | no nucleotide | binding | binds
AAAAGGTGGTGGGGGGGGTTGGTAGGGTGTCTTCT (structured DNA; 5' thiol, 3' methylene blue) | INS 25-54;90-110 (Homo sapiens) | square wave voltammetry | folded DNA | 20 µM, signal suppression | binding | binds
TCACCGGTTGCCTGAACCCTTGGGACCCCTCCAAAAGCTTAATTACCC (dsDNA) | NLP3 1-938 (Oryza sativa, UniProt Q5NB82) | EMSA | double-stranded DNA, one strand shown | – | binding | binds
DNA 1 CTCGAGGAATTCGGATCCGAATTCCTCGAGGCGCTCC / DNA 2 CTCGAGGAATTCGGATCCGAATTCCTCGAGGCGCTCC (dsDNA; 3' 7-nt overhangs, palindromic) | sduA 171-380 (Bacillus cereus, UniProt B7HFR2) | fluorescence polarization | double-stranded DNA | together with: Mg2+ 5 mM | binding | no binding
GTCTTCAGCTCGGACTTCGGAAGAATAAACAGGCGTAGAAGTGATAACGTTCTTAATACGAAAATTAAGCTCTGTCTCCGTTTCGTGCTACGGTTAGAAAGGCGAAAGCCCCAAGAAATACAAGCACACCTGATAAGCGAGATTTAAGGATAACAGCGAAATTCAATAGGGTCTGAATTTCCAAACTAGGTTAAATGCCACGACGTTTTATTGTTG (dsDNA) | ihfA/ihfB 1-98; 1-95 (Aggregatibacter actinomycetemcomitans) | EMSA | double-stranded DNA, one strand shown | – | binding | binds
ATCTGGGAATTCCCAGAT (dsDNA; blunt/self-complementary palindrome) | RELA 19-191 (Homo sapiens, UniProt Q04206) | NMR | double-stranded DNA, one strand shown | NaCl 50 mM | binding | binds
GACAAAAGATGTTGACCTTCACGCCTCTCTTCTTAGACCCCACGCGCCACACTCTCACGGTGAGAACATAAATATCAATCTCTCTTTTACCGCCTCCTACCCATTTATCTCTCTCTTTCTCAAAACCTTTCAGTCAAAATTCTCC (dsDNA) | WRKY40 full length assumed | EMSA | double-stranded DNA, one strand shown | – | binding | binds
TTAGGAGGAGAAGGTTCCAAATCCTT (dsDNA) | HSFA4D 1-459 (Oryza sativa, UniProt Q93VB5) | EMSA | double-stranded DNA, one strand shown | – | binding | binds
DNA 1 TAAATTGTAAGCGTTAATATTTTGTTAAAATTCGCGTTAAATTTTTGTTAAATCAGCTCATTTTTTAACCAATAGGCCGAAATCGGCAAAATCCCTTATA / DNA 2 TAACAAAAATTTAACGCGAATTTTAACAAAATATTAACGCTTACAATTT (dsDNA; 3' overhang) | protein full length assumed (Mycosarcoma maydis, UniProt Q8NJ74) | EMSA | – | – | binding | binds
UAUGUUUUC (ssRNA) | U2AF2 | sequencing of bound RNA | RNA | motif only | Kd | 5.76 µM
TTGGGCGAGCCGACCTGGGTGTGGGGGAATTGATTG (dsDNA) | NAC067 1-276 (Oryza sativa, UniProt Q7EZT1) | competition | double-stranded DNA, one strand shown | – | binding | no binding
ACCAAGCGGGATGCTGAGCCGCCGCCGCCGCCG (dsDNA; blunt) | WT1 | EMSA | double-stranded DNA, one strand shown | – | binding | no binding
TAGTTTCAGAACGTCTCTTGACTGCAAAATCCAGTTTGTCCACAAGTATT (dsDNA) | WRKY23 | EMSA | double-stranded DNA, one strand shown | – | binding | binds
CGTTTGTCGCTGTCACGATGTGGACCGTTCTTCTTTATTTTCACGTGGACCGACTTAATTACCTTCTTTCATTCTTGTTATTTCAATATTTTTTACGTCATTTAAACTCCACTTTACCAAAATAATTTATTTCATTCTTTGAGAGCATCAATTATCAAATAATTCAATTGTCTTTTTTCGTGATAGTTGAATAAGGGAC (dsDNA) | WRKY18 full length assumed (Arabidopsis thaliana, UniProt Q9C5T4) | EMSA | double-stranded DNA, one strand shown | – | binding | binds
CTTATTTCTTCTTCAACACGGTTTAA (dsDNA) | SRM1 1-298 (Arabidopsis thaliana, UniProt Q9FNN6) | EMSA | double-stranded DNA, one strand shown | – | binding | no binding
CAAATTAATCTAAGTCTGGAGCCGCCGGGATGATGAGACTTG (dsDNA) | AP2/ERF domain-containing protein (Vitis vinifera, UniProt A0A0F6T258) | EMSA | double-stranded DNA, one strand shown | – | binding | binds
GGGGTTCCCCCCAACCTA (dsDNA) | Auxin response factor 1-610 (Capsicum annuum, UniProt A0A1U8F1G4) | EMSA | double-stranded DNA, one strand shown | – | binding | no binding
CCTGCGGTATTGACACTTGAGGGGCGCGACTACTGACAGATGAGGGGCGCGATCCTTGACACTTGAGGGGCAGAGTGATGACAGATGAGGGGCGCACCTATTGACATTTGAGGGGCTGTCCACAGGCAG (dsDNA) | trfA 98-382 G254D/S267L/R347E (Escherichia coli, UniProt P07676) | SPR | double-stranded DNA, one strand shown | – | binding | no binding
AGAAG (ssRNA) | SART3 697-786 (Homo sapiens, UniProt Q15020) | ITC | RNA | – | binding | no binding

Strand | target | assay | test system | setting | measurement | value
AGTACAAGAGTACAGCTGAAAGCCATAGTACAC (dsDNA; blunt) | SPL9 full length assumed (Oryza sativa, UniProt Q6I576) | EMSA | double-stranded DNA, one strand shown | – | binding | binds
TAAGAGAATATTGGGAAATTGTCTACCCAGATGAACATCCCTCCCAAAATTGCGTAA (dsDNA) | EIN3 1-628 (Arabidopsis thaliana, UniProt O24606) | EMSA | double-stranded DNA, one strand shown | – | binding | no binding
TTATGGGCGTGGGCCCTACGCGTGTGCGCACGAGGAGGTGAGGTGA (dsDNA) | Protein BZR1 homolog 1-304 (Oryza sativa, UniProt A0A0P0UYT3) | EMSA | double-stranded DNA, one strand shown | – | binding | no binding
GAGCTGCAAGTGGATATTTGGACCTCTTTGAGGTCTTCGTTGGAAACGGGATTTCCTCATATAATGTTACACAGAAGAATTCTCAGTAACTTATTTGTGGTGTGTGTATTCAACTCACAGAGGTGAACCTTCCTTCAGAAAGAGCAGATTTGAAACACTCTTTTTGTACCC (dsDNA) | CENP-I/CENP-H/CENP-K 57-281 / 1-247 / 1-269 (Homo sapiens) | EMSA | double-stranded DNA, one strand shown | – | binding | binds
GUCUUCUCU (ssRNA) | U2AF2 | sequencing of bound RNA | RNA | motif only | Kd | 4.79 µM
CTCAGGAATTCCTGTAAAGTAATGTGGAGCTCAGTTCAAGTCAATCGGTCC (dsDNA; 5'-amino-C6 primer) | T1, TOA1/TOA2 1-286; 1-122 (Saccharomyces cerevisiae) | array | double-stranded DNA, one strand shown | TFIIA alone | Kd | 0.0252 ± 0.00628 µM
AAATGTAGATTGAAGATGTTGACTTTCTTCACCCCAGTCTATTA (dsDNA) | WRKY domain-containing protein 1-700 (Vitis vinifera, UniProt A0ABY9BSD8) | EMSA | double-stranded DNA, one strand shown | – | binding | binds
AAACGTCCGTGGAAAACC (dsDNA) | PDR1 1-207 (Saccharomyces cerevisiae, UniProt P12383) | competition | double-stranded DNA, one strand shown | – | binding | binds
TCCCTGTCAATCTGATCGACACACACCTCT (dsDNA) | GATA15 full length assumed (Oryza sativa, UniProt Q6L5E5) | EMSA | double-stranded DNA, one strand shown | – | binding | binds
ACCAAGCTGGATGCGGAGCCGCCGCCGCCGCCG (dsDNA; blunt) | WT1 | EMSA | double-stranded DNA, one strand shown | – | binding | no binding
CTGTTTTATTCACTTGATCTTCTTAATCTTTTAAATTGCCTATCTTTTGCTATGTTTTTGTTACAATTTAAATTGACAAGTACTTAGAAAAACAAACAAAAATGATATCTCTGTTCCATCTTAGATTATTCGTTTCTTATTTCTCTTAATATATATTTTTGAACACGCTTATTTCTCTTATATATGTTGCAATATTC (dsDNA) | WRKY40 full length assumed | EMSA | double-stranded DNA, one strand shown | – | binding | binds
ACAGGGGTGTGGGGACAGGGGTGTGGGG (G-quadruplex DNA (Homo sapiens); intramolecular G4) | IGF1 49-118 (Homo sapiens, UniProt P05019) | SPR | folded DNA | – | binding | no binding
AAGACTTGGAATATAATAATTATTCATTTAAA (dsDNA) | hb-1 full length assumed (Solanum lycopersicum, UniProt B6GVA3) | EMSA | double-stranded DNA, one strand shown | – | binding | binds
ACAAGAACAUCAAAGUCGAAGAACCUUCCG (ssRNA) | IGF2BP1 1-577 (Homo sapiens, UniProt Q9NZI8) | pull-down | RNA | – | binding | binds
ACCAAGCGGGAAGCGGAGCCGCCGCCGCCGCCG (dsDNA; blunt) | WT1 | EMSA | double-stranded DNA, one strand shown | – | binding | no binding
AATTACTTAGAACTCTCACATTTAACCACGTCATGATCATATCAACGGTGTTATCCAT (dsDNA) | BZIP12 full length assumed (Oryza sativa, UniProt Q0JHF1) | EMSA | double-stranded DNA, one strand shown | – | binding | binds
AGCGTAGCACTGGGCT (dsDNA) | protein full length assumed (Bacillus pumilus, UniProt A3FMN7) | EMSA | double-stranded DNA, one strand shown | – | binding | no binding
ATCTTTTTTACTCTAGGAAGTTGACATTCTTTGTCCATTTCCAAAAGAA (dsDNA) | WRKY23 | EMSA | double-stranded DNA, one strand shown | – | binding | binds
CAGAGGATGTGGCTTC (dsDNA) | FLI1 276-375 (Homo sapiens, UniProt Q01543) | X-ray crystallography | double-stranded DNA, one strand shown | – | binding | binds
TCGGTACCCGTGGATC (dsDNA) | protein full length assumed K369A (Bacillus pumilus, UniProt A3FMN7) | EMSA | double-stranded DNA, one strand shown | – | binding | binds

Excerpt of the above:
Strand | target | assay | test system | setting | measurement | value
ACAAGAACAUCAAAGUCGAAGAACCUUCCG (ssRNA) | IGF2BP1 1-577 (Homo sapiens, UniProt Q9NZI8) | pull-down | RNA | – | binding | binds
CTGTTTTATTCACTTGATCTTCTTAATCTTTTAAATTGCCTATCTTTTGCTATGTTTTTGTTACAATTTAAATTGACAAGTACTTAGAAAAACAAACAAAAATGATATCTCTGTTCCATCTTAGATTATTCGTTTCTTATTTCTCTTAATATATATTTTTGAACACGCTTATTTCTCTTATATATGTTGCAATATTC (dsDNA) | WRKY40 full length assumed | EMSA | double-stranded DNA, one strand shown | – | binding | binds
CTTATTTCTTCTTCAACACGGTTTAA (dsDNA) | SRM1 1-298 (Arabidopsis thaliana, UniProt Q9FNN6) | EMSA | double-stranded DNA, one strand shown | – | binding | no binding
AGTACAAGAGTACAGCTGAAAGCCATAGTACAC (dsDNA; blunt) | SPL9 full length assumed (Oryza sativa, UniProt Q6I576) | EMSA | double-stranded DNA, one strand shown | – | binding | binds
AAAAGGTGGTGGGGGGGGTTGGTAGGGTGTCTTCT (structured DNA; 5' thiol, 3' methylene blue) | INS 25-54;90-110 (Homo sapiens) | square wave voltammetry | folded DNA | 20 µM, signal suppression | binding | binds
CCTGCGGTATTGACACTTGAGGGGCGCGACTACTGACAGATGAGGGGCGCGATCCTTGACACTTGAGGGGCAGAGTGATGACAGATGAGGGGCGCACCTATTGACATTTGAGGGGCTGTCCACAGGCAG (dsDNA) | trfA 98-382 G254D/S267L/R347E (Escherichia coli, UniProt P07676) | SPR | double-stranded DNA, one strand shown | – | binding | no binding
